Results gathered from unrelated publications.
Each line is one published result; not all experiments were run side by side. Several values in a cell are separate wells, animals, samples, runs or records. ± gives the spread as reported.
Chain of UniProt Q9UH17 (whole entry, looked up): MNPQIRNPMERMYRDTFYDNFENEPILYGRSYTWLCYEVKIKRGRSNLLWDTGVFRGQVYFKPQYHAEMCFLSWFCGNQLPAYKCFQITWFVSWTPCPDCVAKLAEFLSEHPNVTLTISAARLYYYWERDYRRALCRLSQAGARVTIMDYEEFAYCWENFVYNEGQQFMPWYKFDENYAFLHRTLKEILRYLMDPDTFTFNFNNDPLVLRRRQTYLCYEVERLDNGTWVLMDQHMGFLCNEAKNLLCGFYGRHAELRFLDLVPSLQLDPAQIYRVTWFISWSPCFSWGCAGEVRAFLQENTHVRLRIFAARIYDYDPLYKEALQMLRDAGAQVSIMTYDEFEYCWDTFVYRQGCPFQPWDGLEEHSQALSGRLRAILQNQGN
Chain of UniProt Q9ULC6 (whole entry, looked up): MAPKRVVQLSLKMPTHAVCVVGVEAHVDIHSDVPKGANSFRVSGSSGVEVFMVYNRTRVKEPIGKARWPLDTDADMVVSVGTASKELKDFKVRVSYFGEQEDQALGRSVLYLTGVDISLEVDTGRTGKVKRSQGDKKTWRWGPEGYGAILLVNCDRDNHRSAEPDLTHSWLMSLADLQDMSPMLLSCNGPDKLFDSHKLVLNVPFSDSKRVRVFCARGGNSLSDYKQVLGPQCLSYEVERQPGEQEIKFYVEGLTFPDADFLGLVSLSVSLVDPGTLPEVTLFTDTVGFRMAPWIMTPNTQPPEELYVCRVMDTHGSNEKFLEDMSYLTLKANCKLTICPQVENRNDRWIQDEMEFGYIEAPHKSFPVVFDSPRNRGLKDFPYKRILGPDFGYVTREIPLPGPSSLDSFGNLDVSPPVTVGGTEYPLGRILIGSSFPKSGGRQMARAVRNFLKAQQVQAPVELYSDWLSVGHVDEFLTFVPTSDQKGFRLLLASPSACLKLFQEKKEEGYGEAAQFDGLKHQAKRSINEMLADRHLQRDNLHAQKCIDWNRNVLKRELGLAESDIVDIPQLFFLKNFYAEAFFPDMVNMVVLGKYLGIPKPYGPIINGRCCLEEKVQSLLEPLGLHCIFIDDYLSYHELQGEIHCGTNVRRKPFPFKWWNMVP
Chain of UniProt P23977 (whole entry, looked up): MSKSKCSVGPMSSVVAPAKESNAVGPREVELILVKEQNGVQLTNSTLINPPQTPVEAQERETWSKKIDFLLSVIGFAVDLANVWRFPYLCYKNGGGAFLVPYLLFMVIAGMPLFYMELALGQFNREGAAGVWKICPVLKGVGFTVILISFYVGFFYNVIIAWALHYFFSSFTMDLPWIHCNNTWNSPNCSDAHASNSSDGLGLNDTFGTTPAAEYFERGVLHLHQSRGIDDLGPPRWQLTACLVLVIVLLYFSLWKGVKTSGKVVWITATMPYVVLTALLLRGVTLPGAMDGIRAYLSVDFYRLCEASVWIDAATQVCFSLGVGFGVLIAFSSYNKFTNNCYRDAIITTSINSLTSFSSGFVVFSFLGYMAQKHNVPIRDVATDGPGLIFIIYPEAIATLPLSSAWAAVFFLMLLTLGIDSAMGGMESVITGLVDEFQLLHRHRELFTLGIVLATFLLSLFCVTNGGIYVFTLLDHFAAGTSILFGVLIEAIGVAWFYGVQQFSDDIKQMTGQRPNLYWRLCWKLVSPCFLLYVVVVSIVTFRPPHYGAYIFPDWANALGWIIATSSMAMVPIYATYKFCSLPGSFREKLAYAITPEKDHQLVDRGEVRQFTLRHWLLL
Chain of UniProt P10721 (whole entry, looked up): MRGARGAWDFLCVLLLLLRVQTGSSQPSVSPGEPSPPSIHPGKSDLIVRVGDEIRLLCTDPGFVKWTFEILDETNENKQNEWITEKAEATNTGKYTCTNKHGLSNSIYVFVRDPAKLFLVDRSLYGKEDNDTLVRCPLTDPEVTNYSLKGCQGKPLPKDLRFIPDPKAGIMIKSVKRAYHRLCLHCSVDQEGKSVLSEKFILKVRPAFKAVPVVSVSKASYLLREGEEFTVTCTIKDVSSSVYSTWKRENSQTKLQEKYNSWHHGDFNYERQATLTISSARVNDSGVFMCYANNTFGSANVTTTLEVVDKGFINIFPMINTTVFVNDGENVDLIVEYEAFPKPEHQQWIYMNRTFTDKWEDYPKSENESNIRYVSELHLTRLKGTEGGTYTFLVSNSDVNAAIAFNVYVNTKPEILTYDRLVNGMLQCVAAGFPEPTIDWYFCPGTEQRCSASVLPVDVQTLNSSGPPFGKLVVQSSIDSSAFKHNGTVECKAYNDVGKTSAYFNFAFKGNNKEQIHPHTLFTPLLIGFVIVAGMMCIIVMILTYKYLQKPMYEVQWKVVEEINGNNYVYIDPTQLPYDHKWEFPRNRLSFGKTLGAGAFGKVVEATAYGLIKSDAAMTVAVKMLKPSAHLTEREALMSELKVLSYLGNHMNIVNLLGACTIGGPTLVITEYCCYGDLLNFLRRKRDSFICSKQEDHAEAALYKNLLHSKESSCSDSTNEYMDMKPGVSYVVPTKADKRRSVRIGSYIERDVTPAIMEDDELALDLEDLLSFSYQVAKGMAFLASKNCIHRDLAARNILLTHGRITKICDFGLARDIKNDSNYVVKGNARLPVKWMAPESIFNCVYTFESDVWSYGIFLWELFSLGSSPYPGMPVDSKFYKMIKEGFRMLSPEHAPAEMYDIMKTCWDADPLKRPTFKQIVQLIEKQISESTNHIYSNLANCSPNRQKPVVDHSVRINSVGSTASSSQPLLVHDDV
Chain of UniProt Q6PE15 (whole entry, looked up): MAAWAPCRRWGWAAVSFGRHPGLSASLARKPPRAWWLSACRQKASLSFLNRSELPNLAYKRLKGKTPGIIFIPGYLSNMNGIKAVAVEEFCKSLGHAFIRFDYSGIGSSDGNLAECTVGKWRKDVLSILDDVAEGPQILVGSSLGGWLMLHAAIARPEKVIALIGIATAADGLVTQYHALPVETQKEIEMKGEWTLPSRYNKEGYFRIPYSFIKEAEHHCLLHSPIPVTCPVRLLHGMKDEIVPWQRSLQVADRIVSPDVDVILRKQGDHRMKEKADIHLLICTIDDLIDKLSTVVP
Chain of UniProt P33533 (whole entry, looked up): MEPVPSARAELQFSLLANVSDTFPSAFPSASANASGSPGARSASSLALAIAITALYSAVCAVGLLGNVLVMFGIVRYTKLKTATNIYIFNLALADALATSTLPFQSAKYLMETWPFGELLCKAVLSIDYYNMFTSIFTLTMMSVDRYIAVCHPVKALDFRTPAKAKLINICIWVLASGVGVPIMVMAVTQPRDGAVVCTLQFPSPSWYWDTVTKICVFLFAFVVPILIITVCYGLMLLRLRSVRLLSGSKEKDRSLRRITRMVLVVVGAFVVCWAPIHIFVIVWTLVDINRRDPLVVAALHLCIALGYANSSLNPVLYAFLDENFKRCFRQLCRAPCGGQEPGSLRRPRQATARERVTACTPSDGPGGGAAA
Chain of UniProt P08238 (whole entry, looked up): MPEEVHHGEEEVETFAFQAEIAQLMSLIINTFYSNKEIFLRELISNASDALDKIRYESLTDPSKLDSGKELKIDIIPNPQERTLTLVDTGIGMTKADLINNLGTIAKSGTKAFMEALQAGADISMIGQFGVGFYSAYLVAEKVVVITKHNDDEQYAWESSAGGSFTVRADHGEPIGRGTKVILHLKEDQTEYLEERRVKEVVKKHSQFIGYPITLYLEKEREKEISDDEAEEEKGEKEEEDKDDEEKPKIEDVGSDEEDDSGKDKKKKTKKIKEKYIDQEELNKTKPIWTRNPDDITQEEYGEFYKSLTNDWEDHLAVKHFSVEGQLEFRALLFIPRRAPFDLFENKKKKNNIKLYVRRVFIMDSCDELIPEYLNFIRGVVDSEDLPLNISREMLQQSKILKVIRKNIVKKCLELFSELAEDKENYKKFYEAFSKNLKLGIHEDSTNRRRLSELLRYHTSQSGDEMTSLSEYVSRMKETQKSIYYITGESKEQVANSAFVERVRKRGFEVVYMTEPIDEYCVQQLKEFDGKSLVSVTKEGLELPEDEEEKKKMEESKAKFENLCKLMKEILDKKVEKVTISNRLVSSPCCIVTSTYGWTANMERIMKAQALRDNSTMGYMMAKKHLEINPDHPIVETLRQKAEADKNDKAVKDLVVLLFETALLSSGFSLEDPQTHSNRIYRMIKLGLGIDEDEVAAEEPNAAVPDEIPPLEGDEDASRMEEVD

C=CC(=O)Nc1cc(-c2ccc(C(=O)N3CCCC(O)(CC)C3)cc2)ccc1F (stereo not shown) has an unmodified protein of 80% and 74% (DNA dC->dU-editing enzyme APOBEC-3B, C-terminal domain (Homo sapiens, UniProt Q9UH17); covalent adduct, intact protein MS; 1 h, 10-fold excess, 250 µM).
Under “organ-to-brain weight ratio”, O=C1NC2(CC2)COc2ncc(F)cc2[C@H]2COCCN2c2ccn3ncc1c3n2 is recorded as 109 ± 11.1% (Sprague-Dawley rat, female, kidneys; oral, 2.5 mg/kg/day, 4 weeks, end of treatment).
With CS(C)(=O)=Nc1ccc(-c2ccc(-c3nc4cc(O[C@@H]5CO[C@H]6[C@@H]5OC[C@H]6O)[nH]c4cc3F)cc2)cc1 the inhibition was -8% (KIT (Homo sapiens, UniProt P10721); enzyme activity, inhibitor; 10 µM).
CC(C)(C)C(=O)OCOP(=O)(OCOC(=O)C(C)(C)C)C1CCCN(O)C1=O (stereo not shown) has a CC50 of > 100 µM (BT-549).
With CC(C)[C@H]1NC(=O)C[C@H]2/C=C/CCSSC[C@@H](NC1=O)C(=O)N[C@H](Cc1cccc3ccccc13)C(=O)NCC(=O)O2 the inhibition was -4.7% (PRKG1 (Homo sapiens, UniProt Q13976); enzyme activity, inhibitor; 10 µM).
With O=C1NC(=O)c2c1c1cc(F)c[n+]3c1c1c2c2cc(O)ccc2[n]1[Ru-4]312([N]=C=S)[S+]3CC[S+]1CC[S+]2CC3 (stereo not shown) the remaining activity was 102% (ULK2 (Homo sapiens, UniProt Q8IYT8); enzyme activity; 100 nM, human enzyme, added: 10 µM ATP; relative to: untreated).
For Cc1cc(-c2ccc3ccccc3c2)nnc1NCCN1CCN(C)CC1, uptake inhibition read “negative” (Slc6a3 (Rattus norvegicus, UniProt P23977); monoamine uptake; rat synaptosomes; concentration not given).
N[C@H](C(=O)N1CCCC1)C1CCN(c2nccc3c(-c4ncc(Cl)cc4Cl)cccc23)CC1 gave a kcat of 0.0206 s⁻¹ and 0.0272 s⁻¹ (PADI1 (Homo sapiens, UniProt Q9ULC6); enzyme activity; 1.536 µM, added: Ca2+ 0.25 mM).
CC[C@@H](C)[C@@H]1CN([C@H](Cc2ccc3ccccc3c2)CN2CCC[C@H]2CN2CCNC[C@@H]2Cc2ccc3ccccc3c2)CCN1CCc1ccc(Cl)c(Cl)c1 has a remaining binding of 90.7% (Oprd1 (Rattus norvegicus, UniProt P33533); radioligand binding; rat brain membranes; 500 nM, pH 7.5, 25 °C, added: 2 nM [3H]DPDPE).
CN(C)[C@H]1C[C@@]23CC[C@@]4(O2)C(=CC[C@]2(C)[C@@H](c5ccc6ccncc6c5)CC[C@H]24)C=C3[C@@H](O)[C@@H]1O has an inhibition of -1.4% (MAP4K5 (Homo sapiens, UniProt Q9Y4K4); cell-free assay, inhibitor; 1 µM).
For CC(C)CC(O)(CC(C)C)c1cn(C(=O)N2CCCC2)nn1, the SILAC ratio was 1.4 (Palmitoyl-protein thioesterase ABHD10, mitochondrial (Mus musculus, UniProt Q6PE15); probe labelling, inhibitor, competitive ABPP-SILAC, item: Abhd10; mouse T cells; concentration not given, 4 h, in situ, protein level; relative to: treated over DMSO, lower = more inhibition).
[CH3][Ti+2][O]C(=O)c1ccc([S][Au][PH](c2ccccc2)(c2ccccc2)c2ccccc2)cc1.c1cc[cH-]c1.c1cc[cH-]c1 has a remaining activity of 96.3% and 101% (PRKCA (Homo sapiens, UniProt P17252); kinase activity; 1 µM, added: ATP 10 µM).
With CCCc1cc2cc(-n3nc(CO)c4c3CC(C)(C)CC4=O)cc(N3CCC(O)CC3)c2c(=O)[nH]1 the selectivity ratio was ~20 fold (HSP90AB1 (Homo sapiens, UniProt P08238); fluorescence polarization; relative to: apparent KD Hsp90α over apparent KD HSP90AB1).
